Experimental data from different studies.
Parts stem from different laboratories: compare values within a part only.

Block 1
Target: Histone acetyltransferase KAT6A, winged helix 1, GST fusion (KAT6A, Homo sapiens, UniProt Q92794, residues 1-85)
Technique: protein binding microarray
Molecule type: double-stranded DNA, one strand shown
Sample: in vitro
Concentration: not given
Setting: 8-mer, flanks averaged, mean of 2 arrays, mostly near background
Relative to: not given
Reading: higher = stronger binding
Endpoint: E-score
Residues (chain): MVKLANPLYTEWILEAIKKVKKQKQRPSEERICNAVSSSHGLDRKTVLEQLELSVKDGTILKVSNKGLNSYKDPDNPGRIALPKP
CGATATAG: 0.00278
CTAACACA: -0.0883
AGGAGTCG: -0.133
GGACGTCC: 0.0207
GAAATGCA: -0.221
AAGGGGCT: -0.124
ACAGAGTG: -0.19
CCACTTGA: -0.143
ATGGGCCC: -0.123
ACCCGGGT: 0.355
GATCAGGC: -0.188
AATACACA: -0.0896
AGAATGTG: -0.135
CCAGTGGC: -0.193
CCATTCCG: 0.0687
CTAGTGGC: 0.0245
ACGACAGA: -0.104
AGTGGTCG: -0.144
AGCCCACC: 0.0619
GATGTGAC: 0.00908
CACTCACC: -0.118
CAGGCGTC: 0.0715
CCGTACAA: 0.24
CCGTCAGG: 0.183
AGGTGGAG: -0.242

Block 2
Target: Interferon regulatory factor 7, full length, phosphomimetic (IRF7, Homo sapiens, UniProt Q92985, residues 1-503, S471D/S472D/S475D/S476D/S477D/S483D/S484D/S487D)
Technique: protein-binding microarray
Molecule type: double-stranded DNA, one strand shown
Sample: in vitro
Concentration: 2200 nM top
Setting: 60-bp whole probe
Together with: salmon DNA 0.4 mg/ml
Relative to: random background probes
Reading: higher = stronger binding
Endpoint: fitted relative affinity
Shared flanks, not repeated: GCCTAGCAC … GTCTTGATTCGCTTGACGCTGCTG
Construct (chain): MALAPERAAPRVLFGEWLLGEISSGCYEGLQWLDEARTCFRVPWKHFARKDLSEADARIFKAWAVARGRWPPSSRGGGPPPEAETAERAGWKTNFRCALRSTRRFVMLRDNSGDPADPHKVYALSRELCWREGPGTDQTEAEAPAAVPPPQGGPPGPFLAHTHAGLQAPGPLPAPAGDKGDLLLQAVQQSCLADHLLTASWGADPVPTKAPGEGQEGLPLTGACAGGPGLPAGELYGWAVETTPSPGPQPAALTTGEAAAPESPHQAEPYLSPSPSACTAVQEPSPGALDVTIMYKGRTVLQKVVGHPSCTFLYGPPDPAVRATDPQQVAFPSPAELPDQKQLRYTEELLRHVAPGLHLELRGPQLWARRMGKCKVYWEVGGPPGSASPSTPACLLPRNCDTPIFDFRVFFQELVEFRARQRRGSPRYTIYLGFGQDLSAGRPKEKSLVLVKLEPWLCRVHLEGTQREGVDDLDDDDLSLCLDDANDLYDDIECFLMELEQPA
TCATACATGAGTTTAGAACTGTGCTAG: 0.00442 z-score
GACGGTCTCCTTTTCCTGAGGTGCTAG: 0.898 z-score
GACGGTTTCCTTATCGTGACGTGCTAG: 2.45 z-score
GGTCTTCTGGGCTGTTTGATCGTGCTA: 0.139 z-score
GACGGTTGCGGACTGGGGACGTGCTAG: -0.41 z-score
CATTGCCTATTTTTCACCTGGTGCTAG: 1.96 z-score
TTAGGTTTCGGGACTGGATTAGTGCTA: 3.01 z-score
TGTTATTAAAATTTCATGAAGTGCTAG: -0.209 z-score
TTAGATATCAGTTTCGATGAGTGCTAG: 2.22 z-score
GACGATTTCAGTATCGAAACGTGCTAG: 1.08 z-score
GACGATTTCAGTTCCGAGGCGTGCTAG: 1.67 z-score
TAAGGTATCCTTATCCTTTAGTGCTAG: 0.569 z-score
AGATATTTAGAACTTCTCCACGTGCTA: -0.135 z-score
GACGGACTGCTTCTTCTGACGTGCTAG: 0.47 z-score
TTAGGTTTCCGACTGGGTTAGTGCTAG: 1.07 z-score
TCAGGTATCGACTTTCGGTTAGTGCTA: 6.28 z-score
GTAGGTTTCGGTATCGGTTAGTGCTAG: 7.46 z-score
TTAGAACTGGGGACTGCATTAGTGCTA: -0.433 z-score
TCACTTCTCCCTTTCAGACTGTGCTAG: 3.39 z-score

Block 3
Target: RING finger protein unkempt homolog, zinc fingers 1-6, GST-SBP tag (UNK, Homo sapiens, UniProt Q9C0B0, residues 30-357)
Sequence of UniProt Q9C0B0 (30-357, looked up): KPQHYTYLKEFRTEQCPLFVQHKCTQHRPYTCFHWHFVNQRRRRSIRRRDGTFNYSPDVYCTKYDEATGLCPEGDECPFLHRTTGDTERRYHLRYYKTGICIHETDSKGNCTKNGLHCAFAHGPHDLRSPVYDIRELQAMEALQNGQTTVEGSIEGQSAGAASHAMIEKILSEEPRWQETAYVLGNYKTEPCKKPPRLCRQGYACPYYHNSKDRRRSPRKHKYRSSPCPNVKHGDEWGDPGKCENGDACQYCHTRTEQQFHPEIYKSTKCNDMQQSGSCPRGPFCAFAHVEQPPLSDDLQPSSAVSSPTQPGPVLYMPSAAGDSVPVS
Technique: RNA Bind-n-Seq
Molecule type: RNA
Sample: in vitro
Concentration: not given
Setting: RNA with constant flanks, human-mouse chimeric sites, ends assumed
Relative to: input RNA pool
Reading: higher = stronger binding
Endpoint: bound/input enrichment
Shared flanks, not repeated: GGGAGUUCUACAGUCCGACGAUC … CAACAGAGGAUUGAGCAUCA
AAAAUAGACUAUGGCGAAUACAUGGAUAAAAACAAUGUGAGGCGGCAAGCAACAACAAUCAUAGCUGAUAACAUUAUAUUUCUGAGUGACCAGACAAAAGAAAAGGCAUAGAACGGAUGA: 3.44 ratio
AUCAAAUACUUUGGGGACAUCAUUAGUGUGGGACAGAGAUUGUUGCAAGGAGCUCGGAUCUUAGGGAUUCCUGUUAUCAUAACGGAACAAUACCCCAAAGGACUUGGCAGCACCGUUCAA: 0.235 ratio
CAGCCUCAGAGCCCAGACUUCCUGGAUAUUACCAACCCUAAAGCGGUAUUAGAAAAUGCAUUGAGAAACUUUGCCUGUCUGACCACCGGAGAUGUGAUUGCUAUCAACUACAAUGAGAAG: 0.291 ratio
UUGCUACUAACUCCAUGGGUCAAGUUCCUGUGGGAGUCAUACAGGCAGUGUUUGGACCUUCUUCGAAACAAUUCUAGAGUAGAGCGCCUUUACCAUGAUAUCGCCCAACAAGCUUUCAAA: 0.151 ratio
GCAUAUGGUUAUCGAGGAAAGGACUGUAGAGCGAAUGUUUACCUUCUUCCCACAGGGGAGAUAGUUUAUUUUAUCGCCUCAGUGGUAGUCCUGUUUAAUUAUGAGGAGAGGACUCAGCGA: 0.272 ratio
AGAGCCCAGGAUGUUGAUGCUACAAAUCCAAAUUACGAAAUUAUGUGUAUGAUCAGAGACUUCAGAGGAAGUUUGGAUUACAGACCCUUAACAACAGCAGAUCCUAUUGAUGAACAUAGG: 0.418 ratio
GAACCUGCUCUCUCUGAUGAAGAUGAGGAAGACAAUGAUGAUGUUGAACCCAUUUCUGAAUUUCGAUUUGUGCCCAGUGAUAAGUCAGCAUUGGAGGCAAUGUUCACAGCAAUGUGUGAG: 0.211 ratio
GAUAAGAAAAGCUUGUUGGAGACCCGCUUGCAUGUCACUGGUAGAGACCUGAGGUGUCAAAUAGCUGAAACUUUCGGAUUUCAAGAAAAUUAUAUCAAAAUUGUCAUAAAUAAGAAACAG: 0.649 ratio

Block 4
Target: RNA binding protein fox-1 homolog 2, RRM domain, GST-SBP tag (RBFOX2, Homo sapiens, UniProt O43251-10, residues 100-194)
Technique: RNA Bind-n-Seq
Molecule type: RNA
Sample: in vitro
Concentration: 365 nM
Setting: natural RNA segment, single round, ends assumed
Relative to: no-protein control
Reading: higher = stronger binding
Endpoint: RBNS enrichment (R)
Shared flanks, not repeated: GGGAGUUCUACAGUCCGACGAUC … UGGAAUUCUCGGGUGCCAA
Construct (chain): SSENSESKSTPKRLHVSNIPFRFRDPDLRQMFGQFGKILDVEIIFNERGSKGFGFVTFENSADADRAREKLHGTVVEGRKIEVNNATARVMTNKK
GUAUCCCUGUGCAAACUCCCAUGUUCUAGUUGCUGUUAGCAUCCCCUUUGUUGCUGUCUGAGAAAGUGAAAGAUUGUGUAUUUCUAUUAAAACAUUUACAGUCAAAAUCC: 1.43
GAAUAUUUGCUUAAAAUUGCUAGUGAUUUCAUUACCAAGUUACUUGAAAAAAUGUUCUAUAUGCAUUUAAUUCUGAAAUCAGUCUACCAAGGGGCUGCUAGUAUAUGUCA: 1.02
UGGGACUGUUAUUCCCAGGGCUCCAGCAAGCCACUCCCUGGGUGACCUCGGGCAAGGCCCUCUCUGGGCCUCGGUGGCCUGUGGAUAAGGAGGGGAGACCCCCACUCGCC: 0.323
GAAGGAUAAGCUGGUUUGUGUUAAGCAGUAUAAUAUUGAUUGGGUCUUUCGCAUCAUAUUCGUUAGCAUUUAUUUGGUGGCAGAAUGUUUGCCUAGGUACAGAAUUAAUA: 0.651
AGGCAGAGAGGUGCCACUUGGCCUACUUGCUUCCUGUCCCCAAGACAGUCCUUUUCUUCUGAAGUAAAUAUACAUAUAUAAAUAAAUGUAUAAAUACUGCUUUGUAUCUG: 0.375
ACAGAGUUAUUUAUUUAUAGAAAUUUUGGUACAGUGUACAUUGAAAACAUGUAAAAUAUUGAAGUGUCUAACAAAUGGCAUAAAGUGUCUUUAAUAAAGGUUCAUUUAUA: 0.548
GUAUGUAUGUUUCUGCCCACUAAUUUUGAGCAGCCAUAUUAUGAAUUAAAUCGUCACAGCCAAGUAAUAACCCAAGAAUGGUAUGAGUUUCAUGUGUAAUAGCUCAAAUG: 0.389
ACUCCAAGAAAACAGAAGCUAUGUGGCCUCUGAUCCCCAAACUGGCCUGGGUGGGGACAUGCCUUGAGUGUGCUGGAAUGUGGGUGGAGCCUGCUUCUGGGCCACCCCUC: 0.385
